Results pooled from the literature.
Lines come from different studies, so protocols differ. ± gives the spread as reported. Values after ≈ are worked out from the molar mass of the structure shown.

SMILES	target or system	test	test system	setting	how to read	measurement	result
Cc1cc(C(=O)N(C)CC2CCCN(CCc3ccc(F)cc3)C2)c(C)o1 (stereo not shown)	Trypanosoma cruzi	reporter mRNA translation, inhibitor, measured: Renilla luciferase mRNA	cell-free extract	concentration not given, test 1	baseline: positive over negative control	translation activity	105%
Nc1ncc(-c2cc(-c3cnn(CC(F)(F)F)c3)ncc2F)nc1C(=O)NC1CNCC(F)C1 (stereo not shown)	GRK7	KINOMEscan	–	1 µM	baseline: DMSO control	remaining binding	64%
Cn1ncc2cc(-c3cncc(Cl)c3N3CCC4(CCNC4=O)CC3)ccc21	LS174T	gene expression, microarray, measured: KRT14 mRNA	–	concentration not given, 24 h	baseline: untreated cells	log2 fold change	-1.38
COCCOCCOCCNC(=O)Cc1cc(CC(=O)N[C@H]2C[C@H]3C(=O)Nc4cc(OCCOCCOCCOC)cc(n4)C(=O)N4CCC[C@H]4C(=O)Nc4cc(OCCOCCOCCOC)cc(n4)C(=O)N4CCC[C@H]4C(=O)Nc4cc(OCCOCCOCCOC)cc(n4)C(=O)N3C2)cc(CC(=O)N[C@H]2C[C@H]3C(=O)Nc4cc(OCCOCCOCCOC)cc(n4)C(=O)N4CCC[C@H]4C(=O)Nc4cc(OCCOCCOCCOC)cc(n4)C(=O)N4CCC[C@H]4C(=O)Nc4cc(OCCOCCOCCOC)cc(n4)C(=O)N3C2)c1	–	anion binding, ITC	water	298 K, added: sodium sulfate	–	ΔG	-4.52 ± 0.0478 kcal/mol
COc1cc(O)ccc1CCC(c1ccc(O)cc1)c1cc2c(c(C)c1O)OC(c1ccc(O)cc1)CC2 (mixture of isomers)	–	measured: 14-HDHA	human whole blood	3 µM, added: Escherichia coli	–	amount	9080 ± 3100 pg/mL blood
C=CC(=O)Nc1cccc(Cn2ncc3cnc(Nc4cnn(CCOC)c4)nc32)c1	MAP3K4 human	binding, KINOMEscan	–	100 nM	lower = stronger binding	percent of control	100%
CCN(CC)CC(=O)Nc1cccc(-n2cc(-c3ccc4ccc(-c5cn(-c6cccc(NC(=O)CN(CC)CC)c6)nn5)cc4c3)nn2)c1	RCC4	PCR angiogenesis array, measured: EPHB4	–	5 x IC50, 2 h, normoxia	baseline: untreated	fold regulation	-1.11
CC(=O)[O-].O.O.O.O.[Co+2].[O-]c1ccc(Br)cc1C=NCCN1CCOCC1	–	DPPH radical scavenging	–	160 µM	–	inhibition	53.6%
CC(C)c1ccc(N(C)c2ccc3c(c2)OCC[C@H]3CNc2cnccc2C(=O)O)cc1	COLO-741	cell growth or viability, ATP luminescence	–	7 days	–	IC50	10.4 nM
Cc1ncsc1-c1ccc(C(C)NC(=O)C2CC(O)CN2C(=O)C(NC(=O)CCCCCCCCCCN2CCCC(Nc3ncc(Cl)c(Nc4ccccc4S(=O)(=O)C(C)C)n3)C2)C(C)(C)C)cc1 (stereo not shown)	22Rv1	RNA-seq, measured: ZKSCAN2 mRNA	–	concentration not given	baseline: DMSO	log2 fold change	-1.5
COC1CN([C@H]2CC[C@H]([C@@]3(C)Oc4c(Cl)cc(C(=O)NCc5c(SC)cc(C)[nH]c5=O)c(C)c4O3)CC2)C1	–	RNA-seq, measured: CXCL16	human, whole blood	dose not given, 24 h	baseline: pretreatment baseline	log2 fold change	2.58
CC1=C[C@@H](O/C=C2/C(=O)O[C@H]3c4ccccc4C[C@@H]23)OC1=O	Phelipanche ramosa	seed germination, stimulant	seeds	–	–	EC50	4.8 nM
C=C(NC(=O)c1csc(-c2nc3c(cc2O)-c2nc(cs2)C(=O)NC(C(C)O)C(=O)NC(=C(C)OC)c2nc(cs2)C(=O)NC2c4nc(cs4)C(=O)NC(COC(=O)c4c5c6c(cccc6n4O)COC(=O)C(OC4CC(C)(O)C(N(C)C)C(C)O4)C2OC5)c2nc-3cs2)n1)C(N)=O (stereo not shown)	Enterococcus faecalis	–	vancomycin-intermediate, 10 isolates	serum 25%	–	MIC50	0.0312 µg/mL (≈ 0.0217 µM)
O=C(NCc1cn(-c2ccccc2)nc1-c1ccccc1)c1cc([N+](=O)[O-])cc([N+](=O)[O-])c1	Trypanosoma cruzi	reporter mRNA translation, inhibitor, measured: Renilla luciferase mRNA	cell-free extract	concentration not given, test 3	baseline: positive over negative control	translation activity	110%
CNS(=O)(=O)Nc1nccc(Cc2c(C)c3ccc(Oc4ncccc4F)cc3oc2=O)c1F	DV-90	cell viability	–	7 days	–	IC50	24.9 nM
CN1CCCNC(=O)c2cccc(c2)C(=O)NCCCN(C)CCCNc2cccc3c2C(=O)c2cccc(c2C3=O)NCCC1	SAS	RNA-Seq, measured: TENT2 mRNA	–	1 µM, 6 h	baseline: untreated cells	log2 fold change	-2.14

A few entries again:
SMILES	target or system	test	test system	setting	how to read	measurement	result
CNS(=O)(=O)Nc1nccc(Cc2c(C)c3ccc(Oc4ncccc4F)cc3oc2=O)c1F	DV-90	cell viability	–	7 days	–	IC50	24.9 nM
CN1CCCNC(=O)c2cccc(c2)C(=O)NCCCN(C)CCCNc2cccc3c2C(=O)c2cccc(c2C3=O)NCCC1	SAS	RNA-Seq, measured: TENT2 mRNA	–	1 µM, 6 h	baseline: untreated cells	log2 fold change	-2.14
